# Published values collected from several papers.
# Numbered parts are unrelated; each lists some results of a single study. Substitutions count along the parent as printed.

# Study 1
# Target: CCNA2, cyclin fold, Cln2 fusion (human)
# Method: yeast growth competition, sequencing
# Medium: yeast
# Notes: strong parent motif
# Baseline: not given
# Reading: higher = stronger binding
# Starting sequence: CDC6 docking peptide (human); TLKGRRLVFDNQL; partner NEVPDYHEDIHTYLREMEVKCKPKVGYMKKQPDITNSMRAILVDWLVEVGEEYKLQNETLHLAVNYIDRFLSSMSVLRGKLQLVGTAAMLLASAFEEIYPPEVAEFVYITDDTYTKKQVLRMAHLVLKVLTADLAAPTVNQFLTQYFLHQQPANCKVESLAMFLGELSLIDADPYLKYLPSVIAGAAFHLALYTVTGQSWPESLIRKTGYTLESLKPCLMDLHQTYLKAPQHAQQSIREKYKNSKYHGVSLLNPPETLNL
Change,normalised enrichment score
QLKGRRLVFDNQL [T1Q],2.17
TLKGRNLVFDNQL [R6N],-0.0393
TLKGRALVFDNQL [R6A],0.952
TLKLRRLVFDNQL [G4L],1.85
TLKGRVLVFDNQL [R6V],0.84
TLHGRRLVFDNQL [K3H],1.37
TLKGRRLVFDNNL [Q12N],3.49
TLKGRRLVFDNQG [L13G],3.35
PLKGRRLVFDNQL [T1P],3.15
TLDGRRLVFDNQL [K3D],0.0741
TLKGRRLVFDNIL [Q12I],3.64
TEKGRRLVFDNQL [L2E],0.969
TLKGRRHVFDNQL [L7H],0.848
VLKGRRLVFDNQL [T1V],3.57
TLKGRRLVFDNQH [L13H],2.48

# Study 2
# Target: Sal-like protein 4, full length isoform A (SALL4, Homo sapiens, UniProt Q9UJQ4, residues 1-1053)
# Chain of UniProt Q9UJQ4 (whole entry, looked up): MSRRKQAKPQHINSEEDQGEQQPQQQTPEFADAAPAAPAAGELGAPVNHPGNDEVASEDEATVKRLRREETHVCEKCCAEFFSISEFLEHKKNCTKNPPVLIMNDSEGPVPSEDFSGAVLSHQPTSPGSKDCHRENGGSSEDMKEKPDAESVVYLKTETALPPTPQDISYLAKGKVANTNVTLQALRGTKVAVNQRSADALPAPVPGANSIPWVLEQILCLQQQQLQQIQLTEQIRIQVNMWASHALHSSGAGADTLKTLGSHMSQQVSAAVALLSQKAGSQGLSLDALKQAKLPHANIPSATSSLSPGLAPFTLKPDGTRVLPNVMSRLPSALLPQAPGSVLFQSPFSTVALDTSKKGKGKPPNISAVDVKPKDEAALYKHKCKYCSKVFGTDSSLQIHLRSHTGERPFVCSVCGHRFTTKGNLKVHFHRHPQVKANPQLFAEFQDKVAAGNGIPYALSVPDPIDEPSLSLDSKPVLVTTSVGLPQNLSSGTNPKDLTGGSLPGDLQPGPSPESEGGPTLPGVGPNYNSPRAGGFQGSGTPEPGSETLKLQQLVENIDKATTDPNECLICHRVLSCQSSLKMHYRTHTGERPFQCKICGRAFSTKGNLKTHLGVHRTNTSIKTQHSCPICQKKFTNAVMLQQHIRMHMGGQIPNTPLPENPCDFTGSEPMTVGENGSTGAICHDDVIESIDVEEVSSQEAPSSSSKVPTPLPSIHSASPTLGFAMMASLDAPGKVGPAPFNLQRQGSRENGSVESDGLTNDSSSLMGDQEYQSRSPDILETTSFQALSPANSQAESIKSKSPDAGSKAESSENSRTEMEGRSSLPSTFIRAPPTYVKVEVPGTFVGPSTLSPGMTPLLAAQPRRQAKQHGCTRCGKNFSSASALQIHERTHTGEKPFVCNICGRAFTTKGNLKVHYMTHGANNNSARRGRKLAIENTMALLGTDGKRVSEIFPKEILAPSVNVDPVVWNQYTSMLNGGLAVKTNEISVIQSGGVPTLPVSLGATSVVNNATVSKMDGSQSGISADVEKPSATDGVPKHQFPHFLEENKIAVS
# Method: universal PBM
# Form: double-stranded DNA, one strand shown
# Medium: in vitro
# Tested at: 600 nM
# Notes: 8-mer, flanks averaged, mean of replicates
# Reading: higher = stronger binding
Strand,E-score
GACCCAGC,-0.324
GGGTTCGA,-0.248
AACTAATT,0.197
TTAATCAA,0.334
GCGAAAAA,0.147
AGCAACCG,-0.0982
AAGTCACG,-0.049
AGCTGAAT,0.107
ATCAAGAG,0.165
AATTTTTG,0.396
CCGGCGAA,-0.214
CAATTGCG,0.0189

# Study 3
# Target: MAFG, bZIP domain (human)
# Method: DHFR protein complementation
# Medium: yeast
# Notes: single substitutions, most at no-binding floor
# Baseline: wild-type JUN-FOS pair
# Reading: higher = stronger binding
# Starting sequence: JUN, bZIP domain (human); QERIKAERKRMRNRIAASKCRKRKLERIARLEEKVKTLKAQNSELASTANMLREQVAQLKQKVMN; partner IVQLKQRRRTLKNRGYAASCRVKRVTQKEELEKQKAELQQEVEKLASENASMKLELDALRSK
Change,binding fitness [natural log]
R53Q,-1.46
Q55G,-1.47
A46D,-1.53
A57E,-1.43
L45G,-1.43
I28S,-1.4
E33G,-1.37
Q41F,-1.48
R53W,-1.42
S47I,-1.4

# Other studies, line by line
Molecule,target,test,test system,conditions,scale,quantity,result
"PhoQ, residues 284 288 289 292 302 303 SSYNSA","PhoP, residues 12 14 15 18 19 SMASL (Escherichia coli, UniProt P23836)","Sort-seq, item: YFP reporter",E. coli,"PhoQ-PhoP variant library, with: 10 µM Mg2+","baseline: high Mg2+ state, higher = stronger signaling",fold induction,2.14

# For quick reference, copied from above (study 1):
Change,normalised enrichment score
TLKGRVLVFDNQL [R6V],0.84
TLHGRRLVFDNQL [K3H],1.37
TLKGRRLVFDNNL [Q12N],3.49
TLKGRRLVFDNQG [L13G],3.35
